Assay results from different studies.
Protocols differ between the studies behind these lines. ± marks the error that the study gave.
CHRM1: Muscarinic acetylcholine receptor M1 (CHRM1, Homo sapiens, UniProt P11229)
Sequence of UniProt P11229 (whole entry, looked up): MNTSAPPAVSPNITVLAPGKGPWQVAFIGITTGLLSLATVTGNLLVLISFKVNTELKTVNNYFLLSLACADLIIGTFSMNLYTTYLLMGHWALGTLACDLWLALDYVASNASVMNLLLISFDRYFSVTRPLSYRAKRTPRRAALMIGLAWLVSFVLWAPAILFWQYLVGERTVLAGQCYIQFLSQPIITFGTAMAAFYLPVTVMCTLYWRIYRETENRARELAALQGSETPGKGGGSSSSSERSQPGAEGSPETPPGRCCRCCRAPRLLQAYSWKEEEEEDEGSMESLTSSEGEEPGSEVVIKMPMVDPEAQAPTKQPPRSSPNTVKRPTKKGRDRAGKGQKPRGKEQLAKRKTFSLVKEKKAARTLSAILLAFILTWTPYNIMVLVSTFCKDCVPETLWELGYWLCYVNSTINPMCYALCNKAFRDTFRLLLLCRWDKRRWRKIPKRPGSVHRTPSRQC
T1: DNA G4, G-quadruplex (Homo sapiens); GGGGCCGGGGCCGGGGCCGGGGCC
Sequence of UniProt P42336 (whole entry, unmodified, looked up): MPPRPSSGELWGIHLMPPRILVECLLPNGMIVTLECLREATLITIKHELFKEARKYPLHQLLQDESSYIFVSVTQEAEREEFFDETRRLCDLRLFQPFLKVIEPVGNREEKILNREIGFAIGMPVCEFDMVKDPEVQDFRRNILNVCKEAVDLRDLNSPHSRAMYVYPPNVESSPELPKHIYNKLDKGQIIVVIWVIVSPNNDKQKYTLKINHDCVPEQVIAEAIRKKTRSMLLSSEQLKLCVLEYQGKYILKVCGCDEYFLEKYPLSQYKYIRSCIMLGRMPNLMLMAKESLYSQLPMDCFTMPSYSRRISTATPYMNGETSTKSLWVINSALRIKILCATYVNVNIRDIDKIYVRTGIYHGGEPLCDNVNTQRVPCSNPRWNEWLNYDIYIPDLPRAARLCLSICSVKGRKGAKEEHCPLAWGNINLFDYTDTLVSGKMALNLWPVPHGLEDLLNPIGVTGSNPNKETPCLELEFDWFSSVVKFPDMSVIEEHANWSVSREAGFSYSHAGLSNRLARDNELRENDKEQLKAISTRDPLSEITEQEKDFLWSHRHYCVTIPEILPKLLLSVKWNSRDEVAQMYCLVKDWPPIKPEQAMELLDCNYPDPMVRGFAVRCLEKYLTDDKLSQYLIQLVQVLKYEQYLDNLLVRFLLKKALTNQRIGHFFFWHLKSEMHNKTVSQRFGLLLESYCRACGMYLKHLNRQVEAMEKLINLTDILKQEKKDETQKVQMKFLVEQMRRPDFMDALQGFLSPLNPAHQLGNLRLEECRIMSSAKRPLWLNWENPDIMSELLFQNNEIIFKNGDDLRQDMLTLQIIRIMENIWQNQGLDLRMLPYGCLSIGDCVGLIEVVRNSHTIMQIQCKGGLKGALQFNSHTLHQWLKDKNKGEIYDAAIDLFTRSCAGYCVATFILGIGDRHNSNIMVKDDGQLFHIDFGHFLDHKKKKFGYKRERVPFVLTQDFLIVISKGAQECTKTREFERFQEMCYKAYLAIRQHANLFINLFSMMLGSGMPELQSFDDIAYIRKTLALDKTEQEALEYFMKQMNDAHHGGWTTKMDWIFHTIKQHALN
Sequence of UniProt P21447 (whole entry, looked up): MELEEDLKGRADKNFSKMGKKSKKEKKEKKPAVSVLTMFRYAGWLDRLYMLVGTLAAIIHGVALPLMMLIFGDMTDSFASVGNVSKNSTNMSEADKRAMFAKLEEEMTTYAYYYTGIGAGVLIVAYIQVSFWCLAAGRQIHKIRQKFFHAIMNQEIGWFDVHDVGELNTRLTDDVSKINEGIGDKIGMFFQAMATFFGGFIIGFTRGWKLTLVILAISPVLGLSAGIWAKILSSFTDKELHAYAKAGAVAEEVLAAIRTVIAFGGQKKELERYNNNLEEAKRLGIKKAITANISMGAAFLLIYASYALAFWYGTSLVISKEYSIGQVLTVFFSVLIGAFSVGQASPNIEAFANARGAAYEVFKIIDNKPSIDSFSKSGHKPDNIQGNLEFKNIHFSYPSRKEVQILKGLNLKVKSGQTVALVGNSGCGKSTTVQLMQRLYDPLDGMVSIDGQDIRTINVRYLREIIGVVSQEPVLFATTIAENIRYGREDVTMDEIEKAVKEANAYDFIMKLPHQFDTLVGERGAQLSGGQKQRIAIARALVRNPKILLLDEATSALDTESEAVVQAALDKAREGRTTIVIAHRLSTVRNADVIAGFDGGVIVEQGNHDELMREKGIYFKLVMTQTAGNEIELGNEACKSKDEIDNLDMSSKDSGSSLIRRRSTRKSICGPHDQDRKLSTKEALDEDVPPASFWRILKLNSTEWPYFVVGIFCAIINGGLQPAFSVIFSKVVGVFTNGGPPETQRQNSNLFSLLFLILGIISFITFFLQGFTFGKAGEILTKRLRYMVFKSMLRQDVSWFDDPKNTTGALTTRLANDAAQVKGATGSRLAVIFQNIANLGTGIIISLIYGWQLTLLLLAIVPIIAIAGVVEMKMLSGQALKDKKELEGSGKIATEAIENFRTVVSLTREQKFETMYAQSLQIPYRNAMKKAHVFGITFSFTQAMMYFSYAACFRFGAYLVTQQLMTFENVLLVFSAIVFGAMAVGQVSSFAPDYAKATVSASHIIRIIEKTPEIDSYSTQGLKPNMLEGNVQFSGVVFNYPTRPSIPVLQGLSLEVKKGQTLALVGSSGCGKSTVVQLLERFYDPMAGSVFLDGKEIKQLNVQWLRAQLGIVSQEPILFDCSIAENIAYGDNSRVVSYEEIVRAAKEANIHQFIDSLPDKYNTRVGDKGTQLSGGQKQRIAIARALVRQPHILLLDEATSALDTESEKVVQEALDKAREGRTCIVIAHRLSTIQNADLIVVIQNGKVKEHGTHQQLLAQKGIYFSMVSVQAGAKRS
Sequence of UniProt P37088 (whole entry, looked up): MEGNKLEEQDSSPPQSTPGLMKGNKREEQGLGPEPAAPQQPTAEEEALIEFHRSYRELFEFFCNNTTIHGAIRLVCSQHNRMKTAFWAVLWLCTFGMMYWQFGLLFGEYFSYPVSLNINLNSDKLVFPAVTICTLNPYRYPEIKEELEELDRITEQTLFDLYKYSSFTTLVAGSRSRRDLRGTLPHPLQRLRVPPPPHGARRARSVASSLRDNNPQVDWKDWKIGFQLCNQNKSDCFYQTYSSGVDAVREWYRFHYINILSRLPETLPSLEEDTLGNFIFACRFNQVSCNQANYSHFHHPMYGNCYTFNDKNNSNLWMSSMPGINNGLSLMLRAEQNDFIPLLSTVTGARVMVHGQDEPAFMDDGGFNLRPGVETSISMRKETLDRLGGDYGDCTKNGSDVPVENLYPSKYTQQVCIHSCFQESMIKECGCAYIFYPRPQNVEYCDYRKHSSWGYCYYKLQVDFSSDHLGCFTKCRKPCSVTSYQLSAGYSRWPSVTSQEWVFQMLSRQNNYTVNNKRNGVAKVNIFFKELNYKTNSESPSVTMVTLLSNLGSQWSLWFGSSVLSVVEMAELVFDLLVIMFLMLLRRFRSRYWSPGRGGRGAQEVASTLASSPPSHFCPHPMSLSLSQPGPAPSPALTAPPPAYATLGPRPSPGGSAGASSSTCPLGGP
Sequence of UniProt Q9UM07 (whole entry, looked up): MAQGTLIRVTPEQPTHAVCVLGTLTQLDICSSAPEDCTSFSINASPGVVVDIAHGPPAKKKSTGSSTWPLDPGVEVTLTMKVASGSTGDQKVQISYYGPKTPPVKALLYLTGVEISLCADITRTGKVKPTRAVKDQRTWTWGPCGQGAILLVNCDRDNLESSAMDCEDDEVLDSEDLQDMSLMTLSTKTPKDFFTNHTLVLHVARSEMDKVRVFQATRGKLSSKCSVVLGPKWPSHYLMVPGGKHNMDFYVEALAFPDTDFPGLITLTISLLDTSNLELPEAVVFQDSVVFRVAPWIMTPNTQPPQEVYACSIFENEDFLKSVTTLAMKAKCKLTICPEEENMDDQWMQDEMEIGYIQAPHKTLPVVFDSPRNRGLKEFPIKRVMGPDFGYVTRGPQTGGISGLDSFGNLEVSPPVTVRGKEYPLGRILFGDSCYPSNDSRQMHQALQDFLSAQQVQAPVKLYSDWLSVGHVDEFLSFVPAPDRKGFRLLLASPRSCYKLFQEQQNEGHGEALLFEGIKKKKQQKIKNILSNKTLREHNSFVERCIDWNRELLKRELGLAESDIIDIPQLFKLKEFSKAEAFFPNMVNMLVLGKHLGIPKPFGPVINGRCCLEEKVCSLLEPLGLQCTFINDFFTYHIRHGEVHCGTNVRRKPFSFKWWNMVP
Sequence of UniProt P02554 (whole entry, looked up): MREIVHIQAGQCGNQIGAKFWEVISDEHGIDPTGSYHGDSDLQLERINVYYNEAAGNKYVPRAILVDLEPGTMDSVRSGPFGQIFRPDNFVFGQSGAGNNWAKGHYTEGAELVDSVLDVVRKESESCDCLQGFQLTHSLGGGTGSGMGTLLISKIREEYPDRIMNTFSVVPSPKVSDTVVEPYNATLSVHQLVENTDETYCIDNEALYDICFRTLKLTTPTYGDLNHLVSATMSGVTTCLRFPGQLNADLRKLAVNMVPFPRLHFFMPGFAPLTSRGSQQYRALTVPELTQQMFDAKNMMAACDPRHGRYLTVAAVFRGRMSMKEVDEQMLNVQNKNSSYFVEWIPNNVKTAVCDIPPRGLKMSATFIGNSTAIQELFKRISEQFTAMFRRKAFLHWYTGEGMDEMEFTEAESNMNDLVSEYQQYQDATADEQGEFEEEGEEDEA
Sequence of UniProt Q2XVP4 (whole entry, looked up): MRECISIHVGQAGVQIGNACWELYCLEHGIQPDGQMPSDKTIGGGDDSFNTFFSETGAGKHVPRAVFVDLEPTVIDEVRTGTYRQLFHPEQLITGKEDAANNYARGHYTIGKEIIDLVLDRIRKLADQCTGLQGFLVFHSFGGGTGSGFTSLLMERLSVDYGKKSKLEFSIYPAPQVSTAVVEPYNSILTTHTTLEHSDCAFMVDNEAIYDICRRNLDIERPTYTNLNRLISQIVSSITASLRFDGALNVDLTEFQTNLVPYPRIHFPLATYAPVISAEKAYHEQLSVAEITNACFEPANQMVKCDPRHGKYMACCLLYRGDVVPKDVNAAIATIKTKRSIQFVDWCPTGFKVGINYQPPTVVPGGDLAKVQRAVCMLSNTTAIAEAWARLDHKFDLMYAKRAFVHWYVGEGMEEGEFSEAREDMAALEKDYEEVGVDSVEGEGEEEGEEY

Substance	target	assay	test system	conditions	how to read	quantity	result
COc1ccc(COc2ccccc2-c2cc(=O)n(C3CCCCC3O)cn2)cc1 (stereo not drawn)	CHRM1	positive allosteric modulator, IP1 accumulation	CHO-M1 cells	1 µM, 60 min, 37 °C, with: ACh	reference: ACh alone, higher = stronger potentiation	ΔpEC50 of ACh	0.78 ± 0.14 log units
O=c1cc(N2CCOCC2)oc2c(OCc3cccnc3)cccc12	Phosphatidylinositol 4,5-bisphosphate 3-kinase catalytic subunit alpha isoform (PIK3CA, Homo sapiens, UniProt P42336, Q859D)	enzyme activity		concentration not given, Gln-Asp swap	reference: wild type	fold change in selectivity	13.7
COc1cc2c(cc1OC)CN(CCc1ccc(NC(=O)c3cc(OC)c(OC)cc3NC(=O)c3cnc4ccccc4c3)cc1)CC2	ATP-dependent translocase ABCB1 (Abcb1a, Mus musculus, UniProt P21447)	inhibitor, PET	wild-type mice	i.v., 15 mg/kg, 2 h before PET, with: [11C]Ko143		brain [11C]Ko143 uptake	increased
COC(=O)c1scc(C)c1NC(=O)C(C)N1CCN(CCO)CC1 (stereo not drawn)	Sodium channel protein type 10 subunit alpha (SCN10A, Homo sapiens, UniProt Q9Y5Y9)	cell membrane chromatography			higher = stronger binding	capacity factor k′	41
CNCCCOc1cc(F)c(-c2c(Cl)nc3ncnn3c2N[C@@H](C)C(F)(F)F)c(F)c1	Tubulin beta chain/TUBA1B, with eribulin (Sus scrofa, UniProt P02554+Q2XVP4)			concentration not given, tubulin 20 µM, with: eribulin		bound compound	20 µM
O=c1cc(-c2ccccc2)oc2cc(O)c(O)c(O)c12	Lysine-specific demethylase 4E (KDM4E, Homo sapiens, UniProt B2RXH2)	inhibitor, FDH-coupled			reference: 20 µM over 2.5 µM ferrous ammonium sulfate	IC50 ratio	3.9
COc1ccc(C)c2sc(NC(=O)c3ccccn3)nc12	Muscarinic acetylcholine receptor M4 (CHRM4, Homo sapiens, UniProt P08173)	calcium mobilization, positive allosteric modulator	CHO expressing hM4 and Gqi5	concentration not given, with: acetylcholine EC20		activity	inactive
NC(=O)[C@H](CCCN=C(N)CF)NC(=O)c1ccccc1	Protein-arginine deiminase type-4 (PADI4, Homo sapiens, UniProt Q9UM07)	inhibitor	MCF7, estrogen-stimulated, whole cell extract	concentration not given, 30 min, with: BFA probe and calcium		PAD4 labelling	inhibited
Tumor necrosis factor alpha	Epithelial sodium channel subunit alpha, with beta, gamma subunits (Homo sapiens, UniProt P37088)	activator, whole-cell patch clamp	A549	concentration not given, holding potential -100 mV		current share attributed to channel	93.4 ± 1.9%
COC(=O)c1ccc(COc2ccccc2-c2cc(=O)n(C3CCCCC3O)cn2)cc1 (stereo not drawn)	CHRM1	positive allosteric modulator, IP1 accumulation	CHO-M1 cells	10 µM, 60 min, 37 °C, with: ACh	reference: ACh alone, higher = stronger potentiation	ΔpEC50 of ACh	1.38 ± 0.13 log units
CC(=O)Cc1cc2c(c(O)c1C(=O)O)-c1c(c(O)c3oc4c(O[C@@H]5OC(C(=O)O)=C(O)[C@H](O)[C@H]5O)cccc4c(=O)c3c1O)CC2	T1, DNA G4, G-quadruplex (Homo sapiens)	fluorescence intensity titration		pH 6.8, KCl 8 mM, one site with Hill slope		Kd	2800 µM
CN(C)C(=O)c1ccc(COc2ccccc2-c2cc(=O)n(C3CCCCC3O)cn2)cc1 (stereo not drawn)	CHRM1	positive allosteric modulator, IP1 accumulation	CHO-M1 cells	1 µM, 60 min, 37 °C, with: ACh	reference: ACh alone, higher = stronger potentiation	ΔpEC50 of ACh	0.32 ± 0.09 log units
O=S(=O)(Nc1ccccc1)C1CC2OC1C(c1ccc(O)cc1)=C2c1ccc(O)cc1 (stereo not drawn)	Estrogen receptor beta (ESR2, Homo sapiens, UniProt Q92731)	reporter gene, antagonist	HepG2	with: estradiol 10 nM	reference: E2 response, negative is inverse agonism	efficacy	21 ± 6%
CC(C)C[C@H](NC(=O)[C@@H]1CSSC[C@H](NC(=O)[C@H](Cc2c[nH]cn2)NC(=O)[C@H](Cc2c[nH]c3ccccc23)NC(=O)[C@H](CCCCNC(=O)CNC(=O)CCC(C(=O)O)N2CCN(CC(=O)O)CCN(CC(=O)O)CC2)NC(=O)CCC(C(=O)O)N2CCN(CC(=O)O)CCN(CC(=O)O)CC2)C(=O)N[C@@H]([C@@H](C)O)C(=O)N[C@@H]([C@@H](C)O)C(=O)N[C@@H](CCCCNC(=O)CNC(=O)CCC(C(=O)O)N2CCN(CC(=O)O)CCN(CC(=O)O)CC2)C(=O)N[C@@H](Cc2ccccc2)C(=O)N2CCC[C@H]2C(=O)N[C@@H](Cc2c[nH]cn2)C(=O)N[C@@H](Cc2c[nH]cn2)C(=O)N[C@@H](Cc2ccc(O)cc2)C(=O)N1)C(=O)N[C@@H](Cc1ccc(O)cc1)C(=O)N[C@@H](Cc1ccc(-c2ccccc2)cc1)C(N)=O (stereo partly drawn) [gallium-68 labelled]	Col1a1/Col1a2 (Mus musculus, UniProt P11087+Q01149)	ex vivo gamma counting	mouse bleomycin pulmonary fibrosis, lung	dose not given, 150 min post injection, bleomycin 2.5 U/kg, day 14		lung uptake	0.066 ± 0.008 %ID/lung
Cn1ncc2ccc(COc3ccccc3-c3cc(=O)n(C4CCCCC4O)cn3)cc21 (stereo not drawn)	CHRM1	positive allosteric modulator, IP1 accumulation	CHO-M1 cells	10 µM, 60 min, 37 °C, with: ACh	reference: ACh alone, higher = stronger potentiation	ΔpEC50 of ACh	1.11 ± 0.2 log units

For quick reference, copied from above:
Substance	target	assay	test system	conditions	how to read	quantity	result
CN(C)C(=O)c1ccc(COc2ccccc2-c2cc(=O)n(C3CCCCC3O)cn2)cc1 (stereo not drawn)	CHRM1	positive allosteric modulator, IP1 accumulation	CHO-M1 cells	1 µM, 60 min, 37 °C, with: ACh	reference: ACh alone, higher = stronger potentiation	ΔpEC50 of ACh	0.32 ± 0.09 log units
COc1ccc(C)c2sc(NC(=O)c3ccccn3)nc12	Muscarinic acetylcholine receptor M4 (CHRM4, Homo sapiens, UniProt P08173)	calcium mobilization, positive allosteric modulator	CHO expressing hM4 and Gqi5	concentration not given, with: acetylcholine EC20		activity	inactive
